Experimental data collected from several papers.
± gives the spread as reported.
Organism: SARS-CoV-2

CN(C)C(=O)COC(=O)Cc1ccc(OC(=O)c2ccc(NC(=N)N)cc2)cc1
IC50 (viral replication; Huh-7): > 2 µM

CC(=O)[C@H]1CC[C@H]2[C@@H]3CCC4=CC(=O)CC[C@]4(C)[C@H]3CC[C@]12C
IC50 (viral replication, RT-qPCR; A549 expressing ACE2): > 10 µM

Cc1noc2c1-c1ccccc1C(c1ccc(Cl)cc1)=N[C@H]2CC(N)=O
viral replication inhibition (Vero E6; concentration not given, NYC laboratory): inactive

COc1ccc(Nc2nc(Nc3ccc(OC)cc3OC)nc(N3CCOCC3)n2)c(OC)c1
efficacy (cytopathic effect, cell-based CPE; USA_WA1/2020; round 2, 5-point dilution): 87.5%

CN1CCN(CC/C=C2/c3ccccc3Sc3ccc(S(=O)(=O)N(C)C)cc32)CC1
EC50 (viral replication, high-content imaging screen; cell-based): 5.75 µM

COc1ccc(C[C@@H]2c3cc(Oc4cc(C[C@@H]5c6cc(O)c(OC)cc6CCN5C)ccc4O)c(OC)cc3CCN2C)cc1
CPE inhibition (viral replication; Vero E6; 6.25 µM): 0%

CCc1ccc(CCOc2ccc(CC3SC(=O)NC3=O)cc2)nc1 (stereo not shown)
viral replication inhibition (Vero E6; concentration not given, NYC laboratory): inactive

CN(C)CCCN1c2ccccc2Sc2ccc(Cl)cc21
IC50 (viral replication, RT-qPCR; A549 expressing ACE2): 0.891 µM

CC(C)C(=O)OC[C@H]1O[C@@H](n2ccc(NO)nc2=O)[C@H](O)[C@@H]1O
lowest active concentration (viral replication; human airway epithelium): 1 µM

CN(C)CCOC(C)(c1ccccc1)c1ccccn1 (stereo not shown)
IC50 (viral replication; Vero E6; inactive set pIC50 4): > 10 µM

CCN(CC)CCOCCOC(=O)C1(c2ccccc2)CCCC1
viral replication inhibition (concentration not given, Paris laboratory): inactive

O=C(O[C@@H]1Cc2c(O)cc(O)cc2O[C@@H]1c1cc(O)c(O)c(O)c1)c1cc(O)c(O)c(O)c1
CPE inhibition (viral replication; Vero E6; 3.125 µM): 0%

Cc1ccnc2c1NC(=O)c1cccnc1N2C1CC1
IC50 (viral replication; Huh-7): > 2 µM

Cc1ccc(C)c(Nc2cc(C(=O)NCCCN(C)C3CCCCC3)c3ccccc3n2)c1
efficacy (cytopathic effect; USA_WA1/2020; retest, 8-point, duplicates): 0%

Cc1ccc(NS(=O)(=O)c2cccc(C(=O)NC3CCN(c4ncnc5[nH]cnc45)CC3)c2)cc1
relative infection (A549-ACE2, Wuhan-Hu-1; 2.469 µM; relative to: untreated): 76.8%

Cc1[nH]c(/C=C2\C(=O)Nc3ccccc32)c(C)c1CCC(=O)O
EC50 (viral replication, GFP plate reader screen; cell-based): 1.78 µM

Cc1nn(-c2ccc(Cl)cc2)c2c1C(c1ccc(-c3ccccc3)cc1)C(C#N)=C(N)O2 (stereo not shown)
Ct value (RT-qPCR, refers to: viral RNA; Vero; 1 µM; higher means less virus): 24.1 cycles

CC(Nc1nc(N2CCN(C)CC2)nc2ccccc12)c1ccccc1 (stereo not shown)
AC50 (cytopathic effect, cell-based CPE; USA_WA1/2020; round 2, 5-point dilution): 12.6 µM

CN(C)CC[C@@H](c1ccc(Cl)cc1)c1ccccn1
IC50 (viral replication, RT-qPCR; A549 expressing ACE2): > 10 µM

Cc1nn(-c2ccc(Cl)cc2)c2c1C(c1ccc(Cl)cc1Cl)C(C#N)=C(N)O2 (stereo not shown)
viral titre (Vero; 10 µM): 346000 IU/mL

CN[C@]1(c2ccccc2)CC[C@]2(CC1)OCCc1c3cc(F)ccc3[nH]c12
inhibition (viral replication; Vero E6, USA-WA1/2020; 2.5 µM): 45.9%

N#C[C@@]1(n2ccc(N)nc2=O)O[C@H](CO)[C@@H](O)[C@H]1O
EC90 (viral replication, qRT-PCR of viral RNA; Caco-2, Washington): 0.6 ± 0.02 µM

Cc1oc(-c2cccc(Cl)c2)nc1CN1CCCC(C(=O)NCCc2ccc(Cl)cc2)C1 (stereo not shown)
efficacy (cytopathic effect; USA_WA1/2020; retest, 8-point, duplicates): 43.4%

CC(C)(C)[C@H](NC(=O)C(F)(F)F)C(=O)N1C[C@H]2[C@@H]([C@H]1C(=O)N[C@H](C#N)C[C@@H]1CCNC1=O)C2(C)C
inhibition (viral replication, infectious virus; Vero E6; 0.0005 µM): 3.4%

CC(C)=CCc1c(O)ccc(C(=O)/C=C/c2ccc(O)cc2)c1O
CPE inhibition (viral replication; Vero E6; 1.562 µM; relative to: mean of replicates): 0%

COC(=O)C1=C(C)NC(C)=C(C(=O)OC2CCCN(Cc3ccccc3)C2)C1c1cccc([N+](=O)[O-])c1 (stereo not shown)
EC50 (viral replication, high-content imaging screen; cell-based): > 100 µM

CCCN1CCN(CCCNC(=O)c2cc3c(Cl)nc4ccccc4c3s2)CC1
maximum response (cytopathic effect; USA_WA1/2020; retest 8-point): 74.1%

Cc1nn(-c2ccc(Cl)cc2)c2c1C(c1ccc(I)cc1)C(C#N)=C(N)O2 (stereo not shown)
Ct value (RT-qPCR, refers to: viral RNA; Vero; 1 µM; higher means less virus): 23.7 cycles

CCC1(C)CC(=O)NC1=O (stereo not shown)
IC50 (viral replication; Huh-7): > 2 µM

COc1ccc(CN2CCN(Cc3ccccc3)CC2)cc1
IC50 (viral replication; A549 expressing ACE2; inactive set pIC50 4): > 10 µM

CC1(C)NC(=O)N(c2ccc([N+](=O)[O-])c(C(F)(F)F)c2)C1=O
IC50 (viral replication; Huh-7): > 2 µM

Fc1ccc(-c2ccc(CN3CCN(c4cccc5ccoc45)CC3)[nH]2)cc1
EC90 (viral replication; 293T-ACE2, USA-WA1/2020): 0.406 µM

CN(C(=O)CN(CCO)CC(=O)N(C)C(C)(C)Cc1ccccc1)C(C)(C)Cc1ccccc1
EC50 (viral replication, high-content imaging screen; cell-based): > 100 µM

CC1(C)CCC(C)(C)c2cc(C(=O)Nc3ccc(C(=O)O)cc3)ccc21
inhibition (viral replication; Vero E6, USA-WA1/2020; 2.5 µM): 41.1%

Cc1sc2c(c1C)C(c1ccc(Cl)cc1)=N[C@@H](CC(=O)OC(C)(C)C)c1nnc(C)n1-2
viral replication inhibition (concentration not given, Paris laboratory): inactive

CSc1ccc2c(c1)C(N1CCN(C)CC1)Cc1ccccc1S2 (stereo not shown)
EC50 (viral replication, GFP plate reader screen; cell-based): 7.24 µM

COc1ccc2[nH]c(C(O)c3ccc(Cl)cc3)c(CCNC(C)=O)c2c1 (stereo not shown)
viral replication (FISH-Flow dsRNA; Vero E6; 10 µM): no effect

O=C(/C=C/c1ccc(O)c(O)c1/C=C/c1ccc(O)c(O)c1)O[C@H](Cc1ccc(O)c(O)c1)C(=O)O
CPE inhibition (viral replication; Vero E6; 0.7812 µM; relative to: mean of replicates): 0%

COc1cc(C2C(C#N)=C(N)Oc3c2c(C)nn3-c2ccc(Cl)cc2)cc(OC)c1OC (stereo not shown)
viral titre (Vero; 1 µM): 756000 IU/mL

Cc1oc(-c2ccccc2)nc1CCC(=O)c1ccc(CC2SC(=O)NC2=O)cc1 (stereo not shown)
selectivity index (Vero C1008; relative to: CC50 over EC50): 6.47

Cc1nn(-c2ccc(Cl)cc2)c2c1C(c1c(Cl)cccc1Cl)C(C#N)=C(N)O2 (stereo not shown)
viral reduction (viral replication; Vero; 1 µM): 0.393%

Cc1ccc(Nc2ccnc(N3CCC(C(=O)NCCCc4ccccc4)CC3)n2)cc1
AC50 (cytopathic effect, cell-based CPE; USA_WA1/2020): 8.91 µM

Fc1ccc([C@@H]2CCNC[C@H]2COc2ccc3c(c2)OCO3)cc1
IC50 (viral replication, RT-qPCR; A549-ACE2): 2.4 µM

CN(C)C(=O)c1cc2cnc(Nc3ccc(N4CCNCC4)cn3)nc2n1C1CCCC1
EC50 (viral replication, high-content imaging screen; cell-based): > 100 µM

Cc1cc(Nc2cc(N)ncn2)c(=O)n2c1C(=O)NC21CCCCC1
viral replication inhibition (concentration not given, Paris laboratory): inactive

CCN(CC)CCCNC(=O)c1ccc(-c2nc(CN3CCc4ccccc43)c(C)o2)cc1
AC50 (cytopathic effect, cell-based CPE; USA_WA1/2020; round 2, 5-point dilution): 12.6 µM

C[C@@H]1CS/C(=N\NC(=O)C(=O)[C@H](NC(=O)C2CCCCCC2)C2CCOCC2)N1C
EC90 (viral replication; 293T-ACE2, USA-WA1/2020): 0.749 µM

C=CC(=O)Nc1cccc(Nc2nc(Nc3ccc(NC4CN(CCF)C4)cc3OC)ncc2C(F)(F)F)c1
IC50 (viral replication; Huh-7): > 2 µM

CCN(CCO)CCCC(C)Nc1ccnc2cc(Cl)ccc12 (single isomer, unassigned)
EC50 (viral replication, high-content imaging screen; BetaCov/Belgium/GHB-03021/2020; cell-based): > 50.1 µM

COc1ccc2c(c1)c(CC(=O)O)c(C)n2C(=O)c1ccc(Cl)cc1
viral replication inhibition (concentration not given, Paris laboratory): inactive

CCCCCOc1ccc(-c2ccc(-c3ccc(C(=O)N[C@H]4C[C@@H](O)[C@@H](O)NC(=O)[C@@H]5[C@@H](O)[C@@H](C)CN5C(=O)[C@H]([C@@H](C)O)NC(=O)[C@H]([C@H](O)[C@@H](O)c5ccc(O)cc5)NC(=O)[C@@H]5C[C@@H](O)CN5C(=O)[C@H]([C@@H](C)O)NC4=O)cc3)cc2)cc1
selectivity index (Vero; relative to: CC50 over IC50): 8

COc1ccc2cc(-c3cc(-c4cc(Cl)cc(Cl)c4)nn3[C@@H](C)c3ccc(C(=O)NCCC(=O)O)cc3)ccc2c1
EC50 (viral replication, GFP plate reader screen; cell-based): > 100 µM

Cc1nn(-c2ccc(Cl)cc2)c2c1C(c1ccc(Cl)c(Cl)c1)C(C#N)=C(N)O2 (stereo not shown)
viral titre log reduction (Vero C1008; 10 µM; relative to: positive control): 0.142 log10

Cc1ncccc1-c1nc2cc(C(=O)NCCCc3ccccc3)ccc2o1
AC50 (cytopathic effect, cell-based CPE; USA_WA1/2020; round 2, 5-point dilution): 15.8 µM

CN1c2c(nc(N)[nH]c2=O)NC[C@@H]1CNc1ccc(C(=O)N[C@@H](CCC(=O)O)C(=O)O)cc1
IC50 (viral replication; Huh-7): > 2 µM

Repeated from above:
CN(C)C(=O)COC(=O)Cc1ccc(OC(=O)c2ccc(NC(=N)N)cc2)cc1
IC50 (viral replication; Huh-7): > 2 µM

CC(=O)[C@H]1CC[C@H]2[C@@H]3CCC4=CC(=O)CC[C@]4(C)[C@H]3CC[C@]12C
IC50 (viral replication, RT-qPCR; A549 expressing ACE2): > 10 µM

Cc1noc2c1-c1ccccc1C(c1ccc(Cl)cc1)=N[C@H]2CC(N)=O
viral replication inhibition (Vero E6; concentration not given, NYC laboratory): inactive

COc1ccc(Nc2nc(Nc3ccc(OC)cc3OC)nc(N3CCOCC3)n2)c(OC)c1
efficacy (cytopathic effect, cell-based CPE; USA_WA1/2020; round 2, 5-point dilution): 87.5%

CN1CCN(CC/C=C2/c3ccccc3Sc3ccc(S(=O)(=O)N(C)C)cc32)CC1
EC50 (viral replication, high-content imaging screen; cell-based): 5.75 µM

COc1ccc(C[C@@H]2c3cc(Oc4cc(C[C@@H]5c6cc(O)c(OC)cc6CCN5C)ccc4O)c(OC)cc3CCN2C)cc1
CPE inhibition (viral replication; Vero E6; 6.25 µM): 0%

CCc1ccc(CCOc2ccc(CC3SC(=O)NC3=O)cc2)nc1 (stereo not shown)
viral replication inhibition (Vero E6; concentration not given, NYC laboratory): inactive
